Measured values gathered from unrelated publications.
Every numbered part comes from another study and shows a few of its results, in no order. Values joined by “and” are separate records of one study, mostly repeats; a detail may differ.
Chain of UniProt O75582 (whole entry, looked up): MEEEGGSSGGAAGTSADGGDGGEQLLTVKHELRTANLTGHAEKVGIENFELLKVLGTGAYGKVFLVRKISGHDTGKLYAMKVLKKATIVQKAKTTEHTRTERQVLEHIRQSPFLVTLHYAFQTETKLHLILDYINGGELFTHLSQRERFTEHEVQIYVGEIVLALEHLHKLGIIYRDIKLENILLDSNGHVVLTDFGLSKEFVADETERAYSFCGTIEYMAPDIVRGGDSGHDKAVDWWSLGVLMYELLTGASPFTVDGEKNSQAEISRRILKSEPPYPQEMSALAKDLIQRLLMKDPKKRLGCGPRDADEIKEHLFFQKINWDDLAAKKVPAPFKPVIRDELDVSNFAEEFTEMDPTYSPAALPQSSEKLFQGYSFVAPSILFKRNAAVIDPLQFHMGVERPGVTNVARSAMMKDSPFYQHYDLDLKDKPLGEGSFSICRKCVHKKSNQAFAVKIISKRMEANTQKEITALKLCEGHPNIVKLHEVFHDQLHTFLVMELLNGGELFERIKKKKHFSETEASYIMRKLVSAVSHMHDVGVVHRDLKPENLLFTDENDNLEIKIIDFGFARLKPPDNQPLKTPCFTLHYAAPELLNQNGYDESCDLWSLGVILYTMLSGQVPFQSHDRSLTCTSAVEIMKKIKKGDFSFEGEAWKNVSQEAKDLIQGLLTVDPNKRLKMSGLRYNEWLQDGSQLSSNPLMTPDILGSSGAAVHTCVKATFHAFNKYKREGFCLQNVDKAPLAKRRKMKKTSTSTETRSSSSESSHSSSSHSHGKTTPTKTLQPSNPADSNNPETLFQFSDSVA
Chain of UniProt P48730 (whole entry, looked up): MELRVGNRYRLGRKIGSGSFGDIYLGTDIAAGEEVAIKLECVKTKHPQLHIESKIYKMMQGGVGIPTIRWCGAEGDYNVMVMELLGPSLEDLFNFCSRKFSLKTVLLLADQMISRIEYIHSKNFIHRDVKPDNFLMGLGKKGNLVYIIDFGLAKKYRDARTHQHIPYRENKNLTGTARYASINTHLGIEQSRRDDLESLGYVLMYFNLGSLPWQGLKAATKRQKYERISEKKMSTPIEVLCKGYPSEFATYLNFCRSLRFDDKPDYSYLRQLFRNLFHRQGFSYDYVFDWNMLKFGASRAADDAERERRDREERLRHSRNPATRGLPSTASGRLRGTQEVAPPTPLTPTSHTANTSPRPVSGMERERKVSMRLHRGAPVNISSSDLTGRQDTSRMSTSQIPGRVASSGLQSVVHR
Chain of UniProt P51451 (whole entry, looked up): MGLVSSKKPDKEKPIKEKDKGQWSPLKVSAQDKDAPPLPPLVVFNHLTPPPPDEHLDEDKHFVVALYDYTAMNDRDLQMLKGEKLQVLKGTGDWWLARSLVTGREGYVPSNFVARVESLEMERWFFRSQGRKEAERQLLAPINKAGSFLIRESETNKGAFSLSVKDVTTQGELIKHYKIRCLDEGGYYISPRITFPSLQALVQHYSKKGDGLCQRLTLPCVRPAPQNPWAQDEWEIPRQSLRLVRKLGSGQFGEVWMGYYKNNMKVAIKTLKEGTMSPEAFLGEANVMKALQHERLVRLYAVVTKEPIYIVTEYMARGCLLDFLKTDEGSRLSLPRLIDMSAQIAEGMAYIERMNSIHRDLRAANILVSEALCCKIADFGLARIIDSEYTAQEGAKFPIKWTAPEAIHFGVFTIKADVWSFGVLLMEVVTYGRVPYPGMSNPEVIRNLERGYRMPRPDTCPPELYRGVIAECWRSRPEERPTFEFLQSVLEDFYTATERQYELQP
Chain of UniProt Q96PF2 (whole entry, looked up): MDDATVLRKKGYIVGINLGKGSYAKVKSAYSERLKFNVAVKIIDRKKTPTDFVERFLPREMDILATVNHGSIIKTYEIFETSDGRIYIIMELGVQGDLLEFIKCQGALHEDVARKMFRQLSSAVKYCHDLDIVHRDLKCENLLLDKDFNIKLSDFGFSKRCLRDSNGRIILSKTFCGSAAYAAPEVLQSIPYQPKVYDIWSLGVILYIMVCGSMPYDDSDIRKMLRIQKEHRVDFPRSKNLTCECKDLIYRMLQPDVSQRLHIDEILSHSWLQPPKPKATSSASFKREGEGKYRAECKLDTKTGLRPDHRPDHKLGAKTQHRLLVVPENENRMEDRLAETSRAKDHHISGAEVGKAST
Chain of UniProt P21709 (whole entry, looked up): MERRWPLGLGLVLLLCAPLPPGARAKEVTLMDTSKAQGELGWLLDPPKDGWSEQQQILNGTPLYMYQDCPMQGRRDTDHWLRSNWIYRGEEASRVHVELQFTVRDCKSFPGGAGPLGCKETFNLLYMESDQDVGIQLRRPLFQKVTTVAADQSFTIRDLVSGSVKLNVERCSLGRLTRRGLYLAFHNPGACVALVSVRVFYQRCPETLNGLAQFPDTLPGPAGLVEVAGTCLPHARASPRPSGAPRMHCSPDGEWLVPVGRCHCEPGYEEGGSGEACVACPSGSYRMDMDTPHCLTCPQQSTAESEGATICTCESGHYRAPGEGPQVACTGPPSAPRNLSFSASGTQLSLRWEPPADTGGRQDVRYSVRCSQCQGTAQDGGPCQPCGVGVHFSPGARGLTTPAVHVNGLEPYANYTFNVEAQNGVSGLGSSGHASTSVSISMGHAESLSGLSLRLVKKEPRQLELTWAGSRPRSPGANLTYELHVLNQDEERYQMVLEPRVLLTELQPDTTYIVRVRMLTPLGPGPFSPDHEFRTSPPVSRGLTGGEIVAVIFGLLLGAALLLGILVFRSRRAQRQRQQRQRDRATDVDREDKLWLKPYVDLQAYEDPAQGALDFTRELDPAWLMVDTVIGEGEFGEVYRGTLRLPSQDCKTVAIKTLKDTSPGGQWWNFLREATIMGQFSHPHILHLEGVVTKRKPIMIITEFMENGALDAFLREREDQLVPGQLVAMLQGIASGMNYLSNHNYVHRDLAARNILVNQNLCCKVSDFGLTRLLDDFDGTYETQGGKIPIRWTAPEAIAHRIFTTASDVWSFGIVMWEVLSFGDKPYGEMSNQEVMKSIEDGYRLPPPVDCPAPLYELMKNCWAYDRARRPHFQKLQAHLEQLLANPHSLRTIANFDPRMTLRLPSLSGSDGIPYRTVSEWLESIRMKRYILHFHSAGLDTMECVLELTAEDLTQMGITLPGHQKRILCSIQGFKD
Chain of UniProt O15530 (whole entry, looked up): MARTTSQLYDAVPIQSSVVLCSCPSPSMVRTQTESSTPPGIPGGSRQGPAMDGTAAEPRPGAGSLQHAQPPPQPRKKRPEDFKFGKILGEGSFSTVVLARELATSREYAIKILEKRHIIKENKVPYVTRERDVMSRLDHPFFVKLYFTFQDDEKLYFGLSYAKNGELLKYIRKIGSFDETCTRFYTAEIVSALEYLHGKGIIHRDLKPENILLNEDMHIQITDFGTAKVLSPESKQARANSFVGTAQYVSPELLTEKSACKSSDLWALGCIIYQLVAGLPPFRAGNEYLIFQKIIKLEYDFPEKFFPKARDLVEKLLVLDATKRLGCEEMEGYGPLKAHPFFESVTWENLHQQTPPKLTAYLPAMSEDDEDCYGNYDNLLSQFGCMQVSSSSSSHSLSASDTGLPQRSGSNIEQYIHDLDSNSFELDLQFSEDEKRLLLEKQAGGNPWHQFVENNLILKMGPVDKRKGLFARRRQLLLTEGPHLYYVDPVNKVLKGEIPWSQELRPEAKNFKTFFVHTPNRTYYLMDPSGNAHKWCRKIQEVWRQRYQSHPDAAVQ
Chain of UniProt P30530 (whole entry, looked up): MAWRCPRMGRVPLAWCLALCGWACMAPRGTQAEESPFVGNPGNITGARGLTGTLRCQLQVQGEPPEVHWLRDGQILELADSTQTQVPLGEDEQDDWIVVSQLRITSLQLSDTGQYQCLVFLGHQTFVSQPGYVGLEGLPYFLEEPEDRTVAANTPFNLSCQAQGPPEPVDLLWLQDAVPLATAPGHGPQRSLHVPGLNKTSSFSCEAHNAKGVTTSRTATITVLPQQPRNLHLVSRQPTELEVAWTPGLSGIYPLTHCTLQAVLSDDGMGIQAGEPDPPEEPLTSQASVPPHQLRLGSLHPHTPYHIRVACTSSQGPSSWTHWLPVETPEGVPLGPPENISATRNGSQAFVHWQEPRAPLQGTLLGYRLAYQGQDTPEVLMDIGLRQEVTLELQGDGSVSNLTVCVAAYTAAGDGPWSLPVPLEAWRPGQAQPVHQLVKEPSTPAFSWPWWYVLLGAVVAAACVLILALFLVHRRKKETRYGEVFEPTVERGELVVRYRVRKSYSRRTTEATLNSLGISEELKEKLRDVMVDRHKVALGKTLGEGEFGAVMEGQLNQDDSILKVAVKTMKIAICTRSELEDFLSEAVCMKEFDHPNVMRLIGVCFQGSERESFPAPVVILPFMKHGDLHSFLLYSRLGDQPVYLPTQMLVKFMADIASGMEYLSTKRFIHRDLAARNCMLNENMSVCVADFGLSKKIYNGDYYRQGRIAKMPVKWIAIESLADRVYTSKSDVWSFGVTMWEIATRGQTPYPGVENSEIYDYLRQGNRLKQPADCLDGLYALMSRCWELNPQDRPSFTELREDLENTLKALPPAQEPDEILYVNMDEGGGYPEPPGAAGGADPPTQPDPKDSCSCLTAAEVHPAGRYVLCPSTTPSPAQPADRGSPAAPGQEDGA

Set 1 — technique: Incucyte 3D growth; concentration: 30 µM; direction: higher = more growth; measurement: spheroid area
SMILES: CC(C)(C(=O)O)[C@H](NC(=O)Cc1cccc(I)c1)c1ccc2oc(=O)[nH]c2c1
MEL-JUSO; 288.52 h: 2.56e+07 a.u. and 2.24e+07 a.u. and 1.98e+07 a.u. and 2.33e+07 a.u. and 4.06e+07 a.u. and 2.29e+07 a.u.
A375; 42.52 h: 2.56e+07 a.u. and 1.92e+07 a.u. and 2.2e+07 a.u. and 2e+07 a.u. and 1.97e+07 a.u.
A375; 120 h: 7.29e+07 a.u. and 6.11e+07 a.u. and 6.8e+07 a.u. and 8.22e+07 a.u. and 7.89e+07 a.u. and 6.73e+07 a.u.
PC-9; 138 h: 1.03e+09 a.u. and 1.07e+09 a.u. and 1.06e+09 a.u. and 1e+09 a.u. and 1.09e+09 a.u.
NCI-H358; 72 h: 3.93e+06 a.u. and 4.21e+06 a.u. and 3.35e+06 a.u. and 3.28e+06 a.u. and 3.27e+06 a.u. and 3.97e+06 a.u.
A375; 456.52 h: 1.42e+08 a.u. and 1.57e+08 a.u. and 1.7e+08 a.u. and 1.55e+08 a.u. and 1.64e+08 a.u. and 1.79e+08 a.u.
NCI-H1437; 216 h: 5.76e+07 a.u. and 6.15e+07 a.u. and 7.87e+07 a.u. and 7.81e+07 a.u. and 8.6e+07 a.u. and 3.6e+07 a.u.

Set 2 — observed: enzyme activity; action: inhibitor; concentration: 10 µM; measurement: inhibition
Target: Calcium/calmodulin-dependent protein kinase type II subunit alpha (CAMK2A, Homo sapiens, UniProt Q9UQM7)
Chain of UniProt Q9UQM7 (whole entry, looked up): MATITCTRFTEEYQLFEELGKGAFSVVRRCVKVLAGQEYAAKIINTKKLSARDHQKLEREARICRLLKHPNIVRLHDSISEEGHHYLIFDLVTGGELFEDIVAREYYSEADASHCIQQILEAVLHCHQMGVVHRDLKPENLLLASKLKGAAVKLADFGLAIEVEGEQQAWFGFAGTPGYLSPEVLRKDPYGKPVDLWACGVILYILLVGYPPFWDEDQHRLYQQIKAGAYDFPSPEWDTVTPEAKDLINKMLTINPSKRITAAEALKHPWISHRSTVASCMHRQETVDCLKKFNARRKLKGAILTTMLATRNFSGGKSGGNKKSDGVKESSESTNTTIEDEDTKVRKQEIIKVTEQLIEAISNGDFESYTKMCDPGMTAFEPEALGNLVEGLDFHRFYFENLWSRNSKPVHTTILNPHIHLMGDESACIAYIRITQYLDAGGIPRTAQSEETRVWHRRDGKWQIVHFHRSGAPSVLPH
C[C@@H]1NC(=O)CNC1=O: 6%
NCCCCN: -12%
C[C@@H]1C[C@H]2[C@@H]3C[C@H](F)C4=CC(=O)C=C[C@]4(C)[C@@]3(F)[C@@H](O)C[C@]2(C)[C@@]1(O)C(=O)CO: -8%
COc1c2c(cc3oc(C)cc(=O)c13)O[C@H](C(C)(C)O)C2: 3%
COc1cc(-c2cc(=O)c3c(O)c(OC)c(O)cc3o2)ccc1O: 11%
C[C@H](N)C(=O)N1CCC[C@H]1C(=O)NCC(=O)N1CCC[C@H]1C(=O)N[C@@H](CCCN=C(N)N)C(=O)O: -27%
COc1cc(-c2[o+]c3cc(O)cc(O)c3cc2O)cc(O)c1O: -7%
COc1cc([C@H]2Oc3cc([C@H]4Oc5cc(O)cc(O)c5C(=O)[C@@H]4O)ccc3O[C@@H]2CO)ccc1O: 0.31% and -0.07%
C=C1C(=O)O[C@@H]2C[C@@]3(C)CCCC(=C)[C@@H]3C[C@H]12: -5%
COc1cc(O)c(CC=C(C)C)c2c1C(=O)C[C@@H](c1ccc(O)cc1)O2: 0.01%
NC1CCN(c2nc3c(cc2F)c(=O)c(C(=O)O)cn3-c2ccc(F)cc2F)C1 (centres unmarked): -11%
CC1(C)CC[C@]2(C(=O)O)CC[C@]3(C)C(=CC[C@@H]4[C@@]5(C)C[C@@H](O)[C@H](O)[C@@](C)(CO)[C@@H]5[C@H](O)C[C@]43C)[C@@H]2C1: -23%

Set 3 — Compound: O=C1NC(=O)/C(=C/c2ccc3c(c2)OC(F)(F)O3)S1; observed: enzyme activity; action: inhibitor; concentration: 0.5 µM; baseline: control; measurement: remaining activity
Serine/threonine-protein kinase 16 (STK16, Homo sapiens, UniProt O75716): 91%
3-phosphoinositide-dependent protein kinase 1 (PDPK1, Homo sapiens, UniProt O15530): 100%
Mitogen-activated protein kinase kinase kinase kinase 4 (MAP4K4, Homo sapiens, UniProt O95819): 95.3%
cAMP-dependent protein kinase catalytic subunit gamma (PRKACG, Homo sapiens, UniProt P22612): 102%
Serine/threonine-protein kinase 17A (STK17A, Homo sapiens, UniProt Q9UEE5): 90.4%
Dual specificity tyrosine-phosphorylation-regulated kinase 3 (DYRK3, Homo sapiens, UniProt O43781): 100%
Cyclin-dependent kinase 1, with cyclin B (CDK1, Homo sapiens, UniProt P06493): 99.6%
Tyrosine-protein kinase Srms (SRMS, Homo sapiens, UniProt Q9H3Y6): 103%
MAP kinase-activated protein kinase 3 (MAPKAPK3, Homo sapiens, UniProt Q16644): 94.2%
Serine/threonine-protein kinase WNK3 (WNK3, Homo sapiens, UniProt Q9BYP7): 91.5%
Ephrin type-B receptor 4 (EPHB4, Homo sapiens, UniProt P54760): 100%
Homeodomain-interacting protein kinase 2 (HIPK2, Homo sapiens, UniProt Q9H2X6): 104%
Homeodomain-interacting protein kinase 4 (HIPK4, Homo sapiens, UniProt Q8NE63): 99.4%
Ephrin type-B receptor 1 (EPHB1, Homo sapiens, UniProt P54762): 95.6%
Cyclin-dependent kinase 6, with cyclin D3 (CDK6, Homo sapiens, UniProt Q00534): 92.6%
Phosphorylase b kinase gamma catalytic chain, skeletal muscle/heart isoform (PHKG1, Homo sapiens, UniProt Q16816): 94.2%
Tyrosine-protein kinase receptor UFO (AXL, Homo sapiens, UniProt P30530): 107%
Calcium/calmodulin-dependent protein kinase type II subunit beta (CAMK2B, Homo sapiens, UniProt Q13554): 99.8%
Testis-specific serine/threonine-protein kinase 2 (TSSK2, Homo sapiens, UniProt Q96PF2): 101%
Tyrosine-protein kinase ABL1 (ABL1, Homo sapiens, UniProt P00519): 98.5%
Cyclin-dependent kinase 4, with cyclin D3 (CDK4, Homo sapiens, UniProt P11802): 98.2%
Ribosomal protein S6 kinase alpha-5 (RPS6KA5, Homo sapiens, UniProt O75582): 91.1%
Tyrosine-protein kinase Blk (BLK, Homo sapiens, UniProt P51451): 99.2%
Ephrin type-A receptor 4 (EPHA4, Homo sapiens, UniProt P54764): 95.9%
Ribosomal protein S6 kinase alpha-6 (RPS6KA6, Homo sapiens, UniProt Q9UK32): 96.5%

Set 4 — observed: cell-free assay; technique: competition with immobilised ligand; concentration: 1 µM; measurement: remaining binding
Compound: CCCCN(CCCC)C(=O)CN1C[C@H](c2cc(OC)c3c(c2)OCO3)[C@@H](C(=O)O)[C@@H]1CC(C)(C)CCC
Casein kinase I isoform delta (CSNK1D, Homo sapiens, UniProt P48730): 100%
Ribosomal protein S6 kinase alpha-4, C-terminal kinase domain (RPS6KA4, Homo sapiens, UniProt O75676): 75%
Tyrosine-protein kinase Fes/Fps (FES, Homo sapiens, UniProt P07332): 100%
Tyrosine-protein kinase receptor TYRO3 (TYRO3, Homo sapiens, UniProt Q06418): 100%
Serine/threonine-protein kinase PAK 1 (PAK1, Homo sapiens, UniProt Q13153): 100%
Insulin-like growth factor 1 receptor (IGF1R, Homo sapiens, UniProt P08069): 100%
Wee1-like protein kinase (WEE1, Homo sapiens, UniProt P30291): 95.4%
Hepatocyte growth factor receptor (MET, Homo sapiens, UniProt P08581): 100%
Ephrin type-A receptor 1 (EPHA1, Homo sapiens, UniProt P21709): 92.6%
Protein kinase C delta type (PRKCD, Homo sapiens, UniProt Q05655): 100%
Phosphatidylinositol 4,5-bisphosphate 3-kinase catalytic subunit alpha isoform (PIK3CA, Homo sapiens, UniProt P42336, E542K): 57.4%
5'-AMP-activated protein kinase catalytic subunit alpha-1 (PRKAA1, Homo sapiens, UniProt Q13131): 100%
Dual specificity mitogen-activated protein kinase kinase 4 (MAP2K4, Homo sapiens, UniProt P45985): 74.4%
Proto-oncogene tyrosine-protein kinase ROS (ROS1, Homo sapiens, UniProt P08922): 100%
Tyrosine-protein kinase ABL1, phosphorylated (ABL1, Homo sapiens, UniProt P00519, T315I): 80.7%

A few entries again (set 4):
Wee1-like protein kinase (WEE1, Homo sapiens, UniProt P30291): 95.4%
Hepatocyte growth factor receptor (MET, Homo sapiens, UniProt P08581): 100%
Ephrin type-A receptor 1 (EPHA1, Homo sapiens, UniProt P21709): 92.6%
Protein kinase C delta type (PRKCD, Homo sapiens, UniProt Q05655): 100%
Phosphatidylinositol 4,5-bisphosphate 3-kinase catalytic subunit alpha isoform (PIK3CA, Homo sapiens, UniProt P42336, E542K): 57.4%
5'-AMP-activated protein kinase catalytic subunit alpha-1 (PRKAA1, Homo sapiens, UniProt Q13131): 100%
Dual specificity mitogen-activated protein kinase kinase 4 (MAP2K4, Homo sapiens, UniProt P45985): 74.4%
Proto-oncogene tyrosine-protein kinase ROS (ROS1, Homo sapiens, UniProt P08922): 100%
Tyrosine-protein kinase ABL1, phosphorylated (ABL1, Homo sapiens, UniProt P00519, T315I): 80.7%
